{"data": "Published values pooled from the literature", "note": "A part holds a random share of what one study measured."}
{"data": "Block 1", "target": "Histone acetyltransferase KAT6A, both winged helices, GST fusion (KAT6A, Homo sapiens, UniProt Q92794, residues 1-181)", "technique": "protein binding microarray", "molecule type": "double-stranded DNA, one strand shown", "medium": "in vitro", "tested at": "not given", "setting": "8-mer, flanks averaged, mean of 2 arrays, mostly near background", "relative to": "not given", "reading": "higher = stronger binding", "Residues (chain)": "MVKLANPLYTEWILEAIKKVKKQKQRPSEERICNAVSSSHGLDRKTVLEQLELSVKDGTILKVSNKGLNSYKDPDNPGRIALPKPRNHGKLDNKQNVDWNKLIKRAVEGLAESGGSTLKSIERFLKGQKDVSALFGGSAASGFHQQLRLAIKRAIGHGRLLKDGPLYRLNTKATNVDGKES"}
{"Oligonucleotide": "TACTTAAA", "E-score": -0.253}
{"Oligonucleotide": "CCAATTCC", "E-score": -0.124}
{"Oligonucleotide": "AATTTCCC", "E-score": -0.113}
{"data": "Block 2", "target": "Interferon regulatory factor 5, full length, phosphomimetic (IRF5, Homo sapiens, UniProt Q13568-2, residues 1-514, S451D/S453D/S456D/S462D)", "technique": "protein-binding microarray", "molecule type": "double-stranded DNA, one strand shown", "medium": "in vitro", "tested at": "940 nM top", "setting": "60-bp whole probe", "with": "salmon DNA 0.4 mg/ml", "relative to": "random background probes", "reading": "higher = stronger binding"}
{"Oligonucleotide": "GCCTAGCACGACGGTATCGGGTATCGGAACGTGCTAGTCTTGATTCGCTTGACGCTGCTG", "fitted relative affinity [z-score]": 5.53}
{"Oligonucleotide": "GCCTAGCACTTAGGACTGGTGACTGGGTTAGTGCTAGTCTTGATTCGCTTGACGCTGCTG", "fitted relative affinity [z-score]": -0.473}
{"Oligonucleotide": "GCCTAGCACCTAGAACTGGGGACTGGATTAGTGCTAGTCTTGATTCGCTTGACGCTGCTG", "fitted relative affinity [z-score]": -0.089}
{"data": "Other studies, line by line", "Sox-I": "Sox-I, HMG box (Salpingoeca helianthica)", "T1": "Sox-I, HMG box (Salpingoeca helianthica); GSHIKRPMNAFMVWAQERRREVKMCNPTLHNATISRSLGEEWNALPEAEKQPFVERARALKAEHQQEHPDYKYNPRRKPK"}
{"Molecule": "GAGTCGTCTCGTCAGCACCATATGGCCGTAGAGCACTCAGGTC", "target": "T1, Sox-I, HMG box (Salpingoeca helianthica)", "test": "Spec-seq", "system": "double-stranded DNA, one strand shown, in vitro", "setting": "not given, whole probe, mean of replicates", "how to read": "relative to: not given, lower = stronger binding", "endpoint": "relative binding energy", "value": "0.795 ln ratio"}
{"Molecule": "PhoQ, residues 284 288 289 292 302 303 SSCCRF", "target": "PhoP, residues 12 14 15 18 19 LHSVQ (Escherichia coli, UniProt P23836)", "test": "Sort-seq, item: YFP reporter", "system": "E. coli", "setting": "PhoQ-PhoP variant library, with: 10 µM Mg2+", "how to read": "relative to: high Mg2+ state, higher = stronger signaling", "endpoint": "fold induction", "value": 11.1}
{"Molecule": "GAGTCGTCTCGTCAGCACGTTGGTTCCGTAGAGCACTCAGGTC", "target": "T1, Sox-I, HMG box (Salpingoeca helianthica)", "test": "Spec-seq", "system": "double-stranded DNA, one strand shown, in vitro", "setting": "not given, whole probe, mean of replicates", "how to read": "relative to: not given, lower = stronger binding", "endpoint": "relative binding energy", "value": "0.843 ln ratio"}
{"Molecule": "GAGTCGTCTCGTCAGCACCATGTTACCGTAGAGCACTCAGGTC", "target": "T1, Sox-I, HMG box (Salpingoeca helianthica)", "test": "Spec-seq", "system": "double-stranded DNA, one strand shown, in vitro", "setting": "not given, whole probe, mean of replicates", "how to read": "relative to: not given, lower = stronger binding", "endpoint": "relative binding energy", "value": "0.855 ln ratio"}
